Measurements of several laboratories.
Each line is one published result; not all experiments were run side by side. ± marks the error that the study gave.
Chymotrypsinogen A: Chymotrypsinogen A (Bos taurus, UniProt P00766)
PPARA ligand-binding domain: Peroxisome proliferator-activated receptor alpha, ligand-binding domain (PPARA, Homo sapiens, UniProt Q07869)
Chain of UniProt Q07869 (whole entry, looked up): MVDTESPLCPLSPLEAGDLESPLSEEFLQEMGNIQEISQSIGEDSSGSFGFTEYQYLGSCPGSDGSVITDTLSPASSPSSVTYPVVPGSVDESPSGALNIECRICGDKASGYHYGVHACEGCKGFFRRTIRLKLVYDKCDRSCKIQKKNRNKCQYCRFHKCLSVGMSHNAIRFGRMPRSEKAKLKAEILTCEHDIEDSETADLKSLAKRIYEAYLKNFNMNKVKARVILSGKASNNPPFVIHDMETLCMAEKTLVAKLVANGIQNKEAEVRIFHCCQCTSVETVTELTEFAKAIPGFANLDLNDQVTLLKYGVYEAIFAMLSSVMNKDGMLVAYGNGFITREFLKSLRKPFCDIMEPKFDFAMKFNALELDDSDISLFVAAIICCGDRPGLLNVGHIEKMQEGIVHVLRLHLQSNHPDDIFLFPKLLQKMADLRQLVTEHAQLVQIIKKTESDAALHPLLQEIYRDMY
GBA2: Beta-glucosidase (GBA2, Homo sapiens, UniProt Q9HCG7)
Chain of UniProt Q9HCG7 (whole entry, looked up): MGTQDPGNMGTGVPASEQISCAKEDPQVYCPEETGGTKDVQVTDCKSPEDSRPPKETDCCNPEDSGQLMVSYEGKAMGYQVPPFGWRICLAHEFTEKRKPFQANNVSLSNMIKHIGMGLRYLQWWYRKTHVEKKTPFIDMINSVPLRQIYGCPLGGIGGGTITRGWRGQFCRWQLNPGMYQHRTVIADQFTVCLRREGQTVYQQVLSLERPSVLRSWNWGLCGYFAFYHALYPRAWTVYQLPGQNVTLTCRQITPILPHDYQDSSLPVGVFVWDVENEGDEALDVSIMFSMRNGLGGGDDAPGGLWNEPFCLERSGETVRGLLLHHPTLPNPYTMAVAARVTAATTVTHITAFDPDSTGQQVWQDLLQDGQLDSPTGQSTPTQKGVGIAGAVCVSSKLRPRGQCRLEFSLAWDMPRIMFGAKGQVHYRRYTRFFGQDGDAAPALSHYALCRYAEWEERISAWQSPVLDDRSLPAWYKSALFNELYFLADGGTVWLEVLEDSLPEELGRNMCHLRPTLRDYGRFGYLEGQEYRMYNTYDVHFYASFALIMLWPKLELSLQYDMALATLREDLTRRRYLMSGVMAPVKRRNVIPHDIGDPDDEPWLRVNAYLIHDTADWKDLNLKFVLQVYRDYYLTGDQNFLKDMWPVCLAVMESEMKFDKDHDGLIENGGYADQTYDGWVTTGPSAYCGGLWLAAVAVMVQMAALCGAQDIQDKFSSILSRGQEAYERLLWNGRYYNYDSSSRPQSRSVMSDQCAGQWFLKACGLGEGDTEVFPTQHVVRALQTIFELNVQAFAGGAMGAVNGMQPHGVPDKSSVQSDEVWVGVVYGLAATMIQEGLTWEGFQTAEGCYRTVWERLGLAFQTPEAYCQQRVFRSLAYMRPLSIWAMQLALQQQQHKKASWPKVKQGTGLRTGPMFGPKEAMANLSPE
Chain of UniProt P10997 (whole entry, looked up): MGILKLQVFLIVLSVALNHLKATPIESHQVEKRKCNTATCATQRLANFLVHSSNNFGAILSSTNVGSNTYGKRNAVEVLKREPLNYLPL
Chain of UniProt Q9BZ95 (whole entry, looked up): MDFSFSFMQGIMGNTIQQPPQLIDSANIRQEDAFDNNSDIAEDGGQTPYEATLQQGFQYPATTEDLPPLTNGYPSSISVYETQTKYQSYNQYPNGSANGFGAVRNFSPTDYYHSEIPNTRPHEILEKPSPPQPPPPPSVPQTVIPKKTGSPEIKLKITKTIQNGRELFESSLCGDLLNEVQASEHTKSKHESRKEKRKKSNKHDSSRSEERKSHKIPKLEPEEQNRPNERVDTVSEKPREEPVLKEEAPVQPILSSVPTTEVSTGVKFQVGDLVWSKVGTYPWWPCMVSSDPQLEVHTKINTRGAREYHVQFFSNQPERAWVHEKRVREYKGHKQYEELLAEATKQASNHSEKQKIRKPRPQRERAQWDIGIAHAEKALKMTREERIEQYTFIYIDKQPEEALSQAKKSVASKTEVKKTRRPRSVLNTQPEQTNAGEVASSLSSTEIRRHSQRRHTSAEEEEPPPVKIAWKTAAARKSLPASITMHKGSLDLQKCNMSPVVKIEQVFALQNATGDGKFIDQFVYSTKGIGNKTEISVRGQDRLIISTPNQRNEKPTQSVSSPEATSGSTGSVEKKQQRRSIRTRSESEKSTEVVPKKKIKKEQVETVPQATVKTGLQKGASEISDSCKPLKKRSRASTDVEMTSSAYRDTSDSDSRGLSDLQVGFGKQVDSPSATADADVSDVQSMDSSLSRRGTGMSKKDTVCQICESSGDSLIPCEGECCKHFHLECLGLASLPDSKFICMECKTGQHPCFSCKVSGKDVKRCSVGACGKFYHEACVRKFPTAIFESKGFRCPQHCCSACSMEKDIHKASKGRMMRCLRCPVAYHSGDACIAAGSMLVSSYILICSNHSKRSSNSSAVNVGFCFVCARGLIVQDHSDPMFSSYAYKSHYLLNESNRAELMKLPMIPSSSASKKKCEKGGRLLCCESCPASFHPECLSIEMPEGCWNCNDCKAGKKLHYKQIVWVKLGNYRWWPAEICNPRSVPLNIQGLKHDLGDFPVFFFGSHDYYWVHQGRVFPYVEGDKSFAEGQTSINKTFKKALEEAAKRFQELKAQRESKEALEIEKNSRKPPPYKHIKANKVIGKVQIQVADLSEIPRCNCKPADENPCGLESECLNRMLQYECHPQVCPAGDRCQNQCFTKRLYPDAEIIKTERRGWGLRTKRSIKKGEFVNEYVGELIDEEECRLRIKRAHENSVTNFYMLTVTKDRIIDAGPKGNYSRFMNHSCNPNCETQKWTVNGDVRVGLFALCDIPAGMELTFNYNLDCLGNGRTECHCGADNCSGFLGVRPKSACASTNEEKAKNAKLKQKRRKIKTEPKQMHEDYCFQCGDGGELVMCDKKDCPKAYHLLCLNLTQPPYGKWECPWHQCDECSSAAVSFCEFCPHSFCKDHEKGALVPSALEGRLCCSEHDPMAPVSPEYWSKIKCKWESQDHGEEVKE
Chain of UniProt P04746 (whole entry, looked up): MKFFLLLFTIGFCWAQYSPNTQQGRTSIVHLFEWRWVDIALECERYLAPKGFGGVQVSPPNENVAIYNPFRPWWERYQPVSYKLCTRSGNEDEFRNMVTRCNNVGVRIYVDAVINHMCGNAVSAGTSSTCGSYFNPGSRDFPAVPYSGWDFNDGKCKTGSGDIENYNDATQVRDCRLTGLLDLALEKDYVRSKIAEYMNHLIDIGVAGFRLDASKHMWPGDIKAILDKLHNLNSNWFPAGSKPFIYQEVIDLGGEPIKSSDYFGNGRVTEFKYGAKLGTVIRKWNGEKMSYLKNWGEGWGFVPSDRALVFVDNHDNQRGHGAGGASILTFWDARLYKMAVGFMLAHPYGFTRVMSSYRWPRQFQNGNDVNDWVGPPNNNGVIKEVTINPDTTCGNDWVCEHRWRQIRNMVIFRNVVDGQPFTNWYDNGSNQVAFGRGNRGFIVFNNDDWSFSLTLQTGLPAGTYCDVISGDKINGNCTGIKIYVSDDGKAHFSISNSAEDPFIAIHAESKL
Chain of UniProt Q8NER1 (whole entry, unmodified, looked up): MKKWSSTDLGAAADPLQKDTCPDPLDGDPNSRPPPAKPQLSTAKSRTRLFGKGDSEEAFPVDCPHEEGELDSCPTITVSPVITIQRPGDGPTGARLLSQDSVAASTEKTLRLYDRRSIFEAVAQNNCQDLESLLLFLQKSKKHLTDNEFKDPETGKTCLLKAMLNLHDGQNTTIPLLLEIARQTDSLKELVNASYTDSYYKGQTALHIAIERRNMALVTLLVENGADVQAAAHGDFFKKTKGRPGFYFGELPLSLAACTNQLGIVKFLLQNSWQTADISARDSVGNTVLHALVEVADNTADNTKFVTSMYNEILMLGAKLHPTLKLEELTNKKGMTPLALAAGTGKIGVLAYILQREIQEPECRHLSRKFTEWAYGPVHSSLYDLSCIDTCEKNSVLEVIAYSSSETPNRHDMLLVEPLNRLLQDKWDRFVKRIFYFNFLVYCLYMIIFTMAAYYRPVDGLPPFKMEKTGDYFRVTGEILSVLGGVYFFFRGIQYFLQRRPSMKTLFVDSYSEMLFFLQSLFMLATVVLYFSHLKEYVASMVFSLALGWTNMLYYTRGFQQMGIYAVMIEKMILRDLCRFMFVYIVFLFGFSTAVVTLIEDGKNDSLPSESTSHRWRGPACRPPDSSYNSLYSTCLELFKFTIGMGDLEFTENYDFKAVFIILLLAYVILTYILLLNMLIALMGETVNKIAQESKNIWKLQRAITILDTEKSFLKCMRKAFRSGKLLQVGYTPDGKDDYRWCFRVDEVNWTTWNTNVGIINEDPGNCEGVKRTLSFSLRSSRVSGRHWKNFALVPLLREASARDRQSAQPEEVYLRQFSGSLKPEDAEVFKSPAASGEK
Chain of UniProt P32298 (whole entry, looked up): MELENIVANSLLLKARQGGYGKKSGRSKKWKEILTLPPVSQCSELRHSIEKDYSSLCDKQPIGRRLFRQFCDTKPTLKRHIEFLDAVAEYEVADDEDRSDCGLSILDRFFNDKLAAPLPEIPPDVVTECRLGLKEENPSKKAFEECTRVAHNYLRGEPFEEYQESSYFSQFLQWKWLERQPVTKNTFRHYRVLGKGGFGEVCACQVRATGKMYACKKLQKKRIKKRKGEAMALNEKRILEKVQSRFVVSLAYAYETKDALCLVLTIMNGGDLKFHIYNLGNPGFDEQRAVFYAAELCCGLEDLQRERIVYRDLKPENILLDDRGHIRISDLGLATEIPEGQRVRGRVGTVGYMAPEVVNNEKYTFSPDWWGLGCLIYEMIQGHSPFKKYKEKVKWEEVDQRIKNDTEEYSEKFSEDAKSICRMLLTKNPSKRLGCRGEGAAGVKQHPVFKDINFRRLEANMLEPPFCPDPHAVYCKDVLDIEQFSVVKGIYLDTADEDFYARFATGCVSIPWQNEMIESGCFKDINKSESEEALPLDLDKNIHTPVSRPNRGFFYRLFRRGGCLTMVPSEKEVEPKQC

The IC50 of `O=C(NCc1cccc(-n2cccn2)c1)C(C(F)(F)F)C(F)(F)F` is reported as greater than 100 µM (Chymotrypsinogen A; enzyme activity, inhibitor, fluorescence).
The IC50 of `Cc1nc2ccccc2c(=O)n1N` is reported as 1093 ± 4.95 µM (Pancreatic alpha-amylase (Homo sapiens, UniProt P04746); enzyme activity, inhibitor).
For `O=C1CC(c2ccccc2)N1S(=O)(=O)c1ccccc1` (stereo not drawn), the IC50 was 1.5 µM (Chymotrypsinogen A; enzyme activity, inhibitor, fluorescence).
The IC50 of `Cc1c(Cc2ccc(OC(C)(C)C(=O)O)cc2)c2ccc(C(=O)N[C@@H](C)c3ccc(C(F)(F)F)cc3)cc2n1C` is reported as 4.56 µM (PPARA ligand-binding domain; reporter gene, luciferase reporter; HEK293T, Gal4-PPARα LBD).
`O=C1NC(=O)C(N2CCc3ccccc32)=C1c1ccccc1` has an IC50 of greater than 7.6 µM (Sensor histidine kinase AirS (Staphylococcus aureus, UniProt Q2FX96); autophosphorylation, inhibitor, BODIPY-FL-ATPγS in-gel fluorescence; lower bound of confidence interval).
With `N[C@@H](CCC(=O)N[C@@H](CS[Se]Cc1ccc(-c2cccc(C(O)c3ccc(Cl)c(Cl)c3)c2)cc1)C(=O)NCC(=O)O)C(=O)O` (stereo partly drawn) the IC50 was 2.49 µM (Tyrosine-protein phosphatase non-receptor type 7 (PTPN7, Homo sapiens, UniProt P35236); enzyme activity, inhibitor; with: pNPP, GSH 1 mM).
`OC[C@@H]1[C@@H](O)[C@H](O)[C@@H](O)CN1CCCCCOCC12CC3CC(C1)CC(COCCCCCN1C[C@H](O)[C@@H](O)[C@H](O)[C@H]1CO)(C3)C2` has an IC50 of 0.01 µM (GBA2; inhibitor, 4MU-β-D-glucopyranoside; HEK293T homogenates overexpressing GBA2).
`CC(=O)N[C@@H](CCCCN)C(=O)Nc1ccc(/N=N/c2ccc(N(C)C)cc2)cc1` has an IC50 of 2.5 µM (Islet amyloid polypeptide (IAPP, Homo sapiens, UniProt P10997); ThT displacement, ThT fluorescence; pH 7.4, preformed target-ThT complex, with: 5 µM ThT).
`C/C1=C\CC/C(C)=C/CC(C)(C)/C=C/C1` gave an IC50 of 35.6 µM (Transient receptor potential cation channel subfamily V member 1 (TRPV1, Homo sapiens, UniProt Q8NER1, G492W); ion current, inhibitor, patch clamp).
The IC50 of `CC(C)(C)OC(=O)c1ccccc1NC(=O)C(C(F)(F)F)C(F)(F)F` is reported as 32 µM (Chymotrypsinogen A; enzyme activity, inhibitor, fluorescence).
With `CCCCCCCN1C[C@H](O)[C@@H](O)[C@H](O)[C@H]1CO` the IC50 was 0.045 µM (GBA2; inhibitor, 4MU-β-D-glucopyranoside; HEK293T homogenates overexpressing GBA2).
`O=C(COc1cccc2ccccc12)NCc1ccc(OP(=O)(O)O)c(OP(=O)(O)O)c1` has an IC50 of 32.5 µM (Signal transducer and activator of transcription 5A, SH2 (Homo sapiens, UniProt P42229); ligand displacement, FP).
`N#Cc1cccc(-c2ccc(COCCCCCN3C[C@H](O)[C@@H](O)[C@H](O)[C@H]3CO)cc2)c1` has an IC50 of 0.002 µM (GBA2; inhibitor, 4MU-β-D-glucopyranoside; HEK293T homogenates overexpressing GBA2).
For `CCC(Oc1cccc(Cc2c(C)n(C)c3cc(C(=O)NC(C)c4cccc(C(C)(C)C)c4)ccc23)c1)C(=O)O` (mixture of isomers), the IC50 was 48.5 µM (PPARA ligand-binding domain; reporter gene, luciferase reporter; HEK293T, Gal4-PPARα LBD).
For `COc1cc(F)c(-c2cc(Cn3cnc4c(N)ncnc43)c(N3CCC[C@](N)([C@H](O)C(F)F)C3)cn2)cc1F`, the IC50 was 8.74 µM (Histone-lysine N-methyltransferase NSD3 (NSD3, Homo sapiens, UniProt Q9BZ95); enzyme activity, inhibitor).
`OC[C@@H]1[C@@H](O)[C@H](O)[C@@H](O)CN1CCCCCOCc1ccc(-c2ccccc2)c(F)c1` has an IC50 of 8e-05 µM (GBA2; inhibitor, 4MU-β-D-glucopyranoside; HEK293T homogenates overexpressing GBA2).
For `Fc1ccc(Nc2nc(NC3CCCCC3)c3cc(Br)ccc3n2)cc1F`, the IC50 was 0.1 µM (Beta-2 adrenergic receptor (ADRB2, Homo sapiens, UniProt P07550, G162A); β-arrestin2 recruitment, antagonist, BRET; HEK293; mutant G162A, with: isoprenaline 1 µM).
`Cc1nn(-c2cccc(N)c2)c(=O)c2cnc(Nc3ccc(N4CCNCC4)cc3)nc12` has an IC50 of 2.44 µM (G protein-coupled receptor kinase 4 (GRK4, Homo sapiens, UniProt P32298); enzyme activity, inhibitor).

Some of these lines once more:
`N#Cc1cccc(-c2ccc(COCCCCCN3C[C@H](O)[C@@H](O)[C@H](O)[C@H]3CO)cc2)c1` has an IC50 of 0.002 µM (GBA2; inhibitor, 4MU-β-D-glucopyranoside; HEK293T homogenates overexpressing GBA2).
For `CCC(Oc1cccc(Cc2c(C)n(C)c3cc(C(=O)NC(C)c4cccc(C(C)(C)C)c4)ccc23)c1)C(=O)O` (mixture of isomers), the IC50 was 48.5 µM (PPARA ligand-binding domain; reporter gene, luciferase reporter; HEK293T, Gal4-PPARα LBD).
